Published values collected from several papers.
Several values in a cell are separate wells, animals, samples, runs or records. ± gives the spread as reported.
Tln1: Tln1 309-405 (Mus musculus, UniProt P26039)
Sequence of UniProt P26039 (whole entry, looked up): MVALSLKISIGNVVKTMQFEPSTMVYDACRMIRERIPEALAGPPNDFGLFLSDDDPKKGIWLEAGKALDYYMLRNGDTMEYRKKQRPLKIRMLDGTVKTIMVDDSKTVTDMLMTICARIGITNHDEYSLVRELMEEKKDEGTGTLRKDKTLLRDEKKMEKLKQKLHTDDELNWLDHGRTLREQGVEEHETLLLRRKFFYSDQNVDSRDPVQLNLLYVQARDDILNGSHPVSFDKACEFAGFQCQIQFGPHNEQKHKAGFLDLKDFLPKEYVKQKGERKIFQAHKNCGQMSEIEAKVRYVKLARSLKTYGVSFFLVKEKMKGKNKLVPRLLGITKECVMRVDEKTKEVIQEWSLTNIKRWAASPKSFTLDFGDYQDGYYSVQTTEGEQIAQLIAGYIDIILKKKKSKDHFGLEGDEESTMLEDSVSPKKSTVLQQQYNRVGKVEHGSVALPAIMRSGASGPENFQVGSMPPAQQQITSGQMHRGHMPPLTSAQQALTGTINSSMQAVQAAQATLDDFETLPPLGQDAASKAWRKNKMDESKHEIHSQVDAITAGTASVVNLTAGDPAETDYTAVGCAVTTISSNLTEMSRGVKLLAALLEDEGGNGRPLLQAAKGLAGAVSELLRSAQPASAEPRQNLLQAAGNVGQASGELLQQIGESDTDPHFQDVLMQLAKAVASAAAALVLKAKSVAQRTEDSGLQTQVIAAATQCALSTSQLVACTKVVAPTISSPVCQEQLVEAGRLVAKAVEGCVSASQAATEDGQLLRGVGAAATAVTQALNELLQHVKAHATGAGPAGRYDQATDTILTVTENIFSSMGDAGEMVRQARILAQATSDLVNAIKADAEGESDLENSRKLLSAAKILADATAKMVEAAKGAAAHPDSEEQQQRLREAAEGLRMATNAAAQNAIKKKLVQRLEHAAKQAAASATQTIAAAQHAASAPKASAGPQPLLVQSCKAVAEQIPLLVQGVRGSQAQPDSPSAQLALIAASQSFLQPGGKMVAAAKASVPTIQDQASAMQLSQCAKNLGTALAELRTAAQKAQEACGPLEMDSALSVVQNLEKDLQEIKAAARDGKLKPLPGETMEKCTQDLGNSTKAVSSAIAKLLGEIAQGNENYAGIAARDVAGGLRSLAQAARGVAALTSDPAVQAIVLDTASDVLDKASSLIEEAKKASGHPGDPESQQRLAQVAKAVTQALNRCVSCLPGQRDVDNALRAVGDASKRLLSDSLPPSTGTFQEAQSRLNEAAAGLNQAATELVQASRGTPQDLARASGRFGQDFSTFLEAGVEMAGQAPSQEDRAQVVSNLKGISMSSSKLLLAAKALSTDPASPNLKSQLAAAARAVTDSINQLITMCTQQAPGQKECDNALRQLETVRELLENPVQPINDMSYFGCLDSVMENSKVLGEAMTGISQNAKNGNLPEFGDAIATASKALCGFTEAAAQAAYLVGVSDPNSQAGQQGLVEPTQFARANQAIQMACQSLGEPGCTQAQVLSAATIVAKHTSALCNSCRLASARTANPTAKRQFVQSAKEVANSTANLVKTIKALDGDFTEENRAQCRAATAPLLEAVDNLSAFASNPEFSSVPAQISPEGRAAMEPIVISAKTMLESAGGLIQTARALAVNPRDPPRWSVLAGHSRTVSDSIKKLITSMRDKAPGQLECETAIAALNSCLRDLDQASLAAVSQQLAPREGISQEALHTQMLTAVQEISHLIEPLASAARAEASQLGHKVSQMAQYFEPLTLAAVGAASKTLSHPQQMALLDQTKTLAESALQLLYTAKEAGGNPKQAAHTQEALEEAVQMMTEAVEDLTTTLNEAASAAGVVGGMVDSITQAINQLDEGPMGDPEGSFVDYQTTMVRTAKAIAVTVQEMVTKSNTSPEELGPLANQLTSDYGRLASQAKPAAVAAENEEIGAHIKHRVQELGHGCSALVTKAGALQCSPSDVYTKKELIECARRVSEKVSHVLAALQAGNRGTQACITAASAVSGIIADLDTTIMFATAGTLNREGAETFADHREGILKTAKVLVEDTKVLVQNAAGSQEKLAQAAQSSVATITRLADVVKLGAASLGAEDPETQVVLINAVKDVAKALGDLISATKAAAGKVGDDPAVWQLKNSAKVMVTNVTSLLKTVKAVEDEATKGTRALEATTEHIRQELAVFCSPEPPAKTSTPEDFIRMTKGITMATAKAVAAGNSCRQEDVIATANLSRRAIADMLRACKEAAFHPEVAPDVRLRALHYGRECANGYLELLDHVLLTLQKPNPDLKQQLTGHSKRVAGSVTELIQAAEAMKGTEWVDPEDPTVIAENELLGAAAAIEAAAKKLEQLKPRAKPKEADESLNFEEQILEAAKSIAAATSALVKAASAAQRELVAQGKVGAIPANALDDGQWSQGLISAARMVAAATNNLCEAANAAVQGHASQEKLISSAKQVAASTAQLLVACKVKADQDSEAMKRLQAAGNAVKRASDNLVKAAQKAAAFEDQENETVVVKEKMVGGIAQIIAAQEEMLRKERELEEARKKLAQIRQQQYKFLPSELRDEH
CDC48A: CDC48A 1-463 (Arabidopsis thaliana, UniProt P54609)
Sequence of UniProt P54609 (whole entry, looked up): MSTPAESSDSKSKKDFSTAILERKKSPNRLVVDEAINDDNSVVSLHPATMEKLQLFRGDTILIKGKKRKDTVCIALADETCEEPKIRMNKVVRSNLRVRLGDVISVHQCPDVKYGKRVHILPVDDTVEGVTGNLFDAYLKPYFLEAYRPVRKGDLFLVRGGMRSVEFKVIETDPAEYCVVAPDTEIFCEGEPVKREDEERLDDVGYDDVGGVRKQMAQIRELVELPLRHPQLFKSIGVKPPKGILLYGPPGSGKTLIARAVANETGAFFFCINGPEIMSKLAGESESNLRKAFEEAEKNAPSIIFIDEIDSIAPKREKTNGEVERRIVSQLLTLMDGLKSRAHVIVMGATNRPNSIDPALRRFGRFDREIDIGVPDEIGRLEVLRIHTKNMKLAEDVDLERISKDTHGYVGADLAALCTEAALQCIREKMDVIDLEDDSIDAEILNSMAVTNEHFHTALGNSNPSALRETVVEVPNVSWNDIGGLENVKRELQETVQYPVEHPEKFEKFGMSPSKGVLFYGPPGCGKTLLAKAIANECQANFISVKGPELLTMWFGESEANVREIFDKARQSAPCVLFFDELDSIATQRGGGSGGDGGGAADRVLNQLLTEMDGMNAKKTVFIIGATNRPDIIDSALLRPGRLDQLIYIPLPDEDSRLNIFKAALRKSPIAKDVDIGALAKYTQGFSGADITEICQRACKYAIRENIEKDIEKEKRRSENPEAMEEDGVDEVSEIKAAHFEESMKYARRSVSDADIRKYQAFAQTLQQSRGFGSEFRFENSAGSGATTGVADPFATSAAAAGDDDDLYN
T1: ATRX ADD domain 167-289 K251R/F284Y (Homo sapiens); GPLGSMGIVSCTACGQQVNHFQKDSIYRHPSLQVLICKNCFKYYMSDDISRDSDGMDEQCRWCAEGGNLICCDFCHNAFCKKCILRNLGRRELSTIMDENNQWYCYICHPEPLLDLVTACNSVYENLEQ
B1: KLRK1 73-216 (Homo sapiens, UniProt P26718); sequence looked up; chain IWSAVFLNSLFNQEVQIPLTESYCGPCPKNWICYKNNCYQFFDESKNWYESQASCMSQNASLLKVYSKEDQDLLKLVKSYHWMGLVHIPTNGSWQWEDGSILSPNLLTIIEMQKGDCALYASSFKGYIENCSTPNTYICMQRTV
B2: PUX3 (Arabidopsis thaliana, UniProt Q9SUG6); chain MSSKDKKLSKPTSGRTGGIRTLSDLNRRSEPDSDSDSDGPQEYFTGGEKSGMLVQDPTKEPKHDDVDEIFNQARQLGAVEGPLEHPSSSRSFTGTGRLLSGESVPTALQQPEPVIHNIIFWSNGFTVDDGPLRKLDDPENASFLDSIRKSECPKELEPVDKRAPVHVNLMRRDEKCPEKEKLKVSFQGVGRTLGGASSSTASSQSNLTDVAAVQSPLQSLVVDETLPSTSIQLRLADGTRMVAKFNNHHTVNDIRGFIEFSRPGNPNNYTLQVMGFPPKPLTDPSQTIEQAGLASSVVIQKF
B3: Cacna1c 1647-1777 (Mus musculus, UniProt Q01815); sequence looked up; chain NALSLQAGLRTLHDIGPEIRRAISGDLTAEEELDKAMKEAVSAASEDDIFRRAGGLFGNHVTYYQSDSRGNFPQTFATQRPLHINKTGNNQADTESPSHEKLVDSTFTPSSYSSTGSNANINNANNTALGR
B4: PLXND1 RBD 1553-1678 (Homo sapiens, UniProt Q9Y4D7); sequence looked up; chain AKPRNLNVSFQGCGMDSLSVRAMDTDTLTQVKEKILEAFCKNVPYSQWPRAEDVDLEWFASSTQSYILRDLDDTSVVEDGRKKLNTLAHYKIPEGASLAMSLIDKKDNTLGRVKDLDTEKYFHLVL
B5: sst2 catalytic domain 245-435 F403W (Schizosaccharomyces pombe, UniProt Q9P371); sequence looked up; chain AGTFKIHAYTEGGKPLRTIYLPKLLKKVFLDVVKPNTKKNLETCGILCGKLRQNAFFITHLVIPLQEATSDTCGTTDEASLFEFQDKHNLLTLGWIHTHPTQTCFMSSVDLHTHCSYQLMLPEAIAIVMAPSKNTSGIFRLLDPEGLQTIVKCRKPGLWHPHEGKVYTMVAQPGHVREINSKLQVVDLRVK
B6: TEPSIN R226A/E227A/D230A/E233A/R234A/E236A (Homo sapiens, UniProt Q96N21); chain MAAAPPLRDRLSFLHRLPILLKGTSDDDVPCPGYLFEEIAKISHESPGSSQCLLEYLLSRLHSSSGHGKLKVLKILLYLCSHGSSFFLLILKRNSAFIQEAAAFAGPPDPLHGNSLYQKVRAAAQDLGSTLFSDTVLPLAPSQPLGTPPATGMGSQARPHSTLQGFGYSKEHGRTAVRHQPGQAGGGWDELDSGPSSQNSSQNSDLSRVSDSGSHSGSDSHSGASAAPGALAAAVAVVALSDCQQELSLVRTVTRGPRAFLSREEAQHFIKACGLLNCEAVLQLLTCHLRGTSECTQLRALCAIASLGSSDLLPQEHILLRTRPWLQELSMGSPGPVTNKATKILRHFEASCGQLSPARGTSAEPGPTAALPGPSDLLTDAVPLPGSQVFLQPLSSTPVSSRSPAPSSGMPSSPVPTPPPDASPIPAPGDPSEAEARLAESRRWRPERIPGGTDSPKRGPSSCAWSRDSLFAGMELVACPRLVGAGAAAGESCPDAPRAPQTSSQRTAAKEPPGSEPSAFAFLNA
B7: CFH domains 1108-1231 R1182S (Homo sapiens, UniProt P08603); sequence looked up; chain KCGPPPPIDNGDITSFPLSVYAPASSVEYQCQNLYQLEGNKRITCRNGQWSEPPKCLHPCVISREIMENYNIALSWTAKQKLYSRTGESVEFVCKRGYRLSSRSHTLRTTCWDGKLEYPTCAKR
B8: BRAF kinase 448-723 K723G/P722S/S720E/L716E/S713E/Q709R/L706S/A688R/Y673S/R662E/K630S/V600E/L588N/Q562R (Homo sapiens, UniProt P15056); sequence looked up; chain DDWEIPDGQITVGQRIGSGSFGTVYKGKWHGDVAVKMLNVTAPTPQQLQAFKNEVGVLRKTRHVNILLFMGYSTKPQLAIVTQWCEGSSLYHHLHASETKFEMKKLIDIARQTARGMDYLHAKSIIHRDLKSNNIFLHEDNTVKIGDFGLATEKSRWSGSHQFEQLSGSILWMAPEVIRMQDSNPYSFQSDVYAFGIVLYELMTGQLPYSNINNEDQIIFMVGRGSLSPDLSKVRSNCPKRMKRLMAECLKKKRDERPSFPRILAEIEELARELSG
B9: RAP1A (Homo sapiens, UniProt P62834); sequence looked up; chain MREYKLVVLGSGGVGKSALTVQFVQGIFVEKYDPTIEDSYRKQVEVDCQQCMLEILDTAGTEQFTAMRDLYMKNGQGFALVYSITAQSTFNDLQDLREQILRVKDTEDVPMILVGNKCDLEDERVVGKEQGQNLARQWCNCAFLESSAKSKINVNEIFYDLVRQINRKTPVEKKKPKKKSCLLL
Sequence of UniProt Q64663 (whole entry, unmodified, looked up): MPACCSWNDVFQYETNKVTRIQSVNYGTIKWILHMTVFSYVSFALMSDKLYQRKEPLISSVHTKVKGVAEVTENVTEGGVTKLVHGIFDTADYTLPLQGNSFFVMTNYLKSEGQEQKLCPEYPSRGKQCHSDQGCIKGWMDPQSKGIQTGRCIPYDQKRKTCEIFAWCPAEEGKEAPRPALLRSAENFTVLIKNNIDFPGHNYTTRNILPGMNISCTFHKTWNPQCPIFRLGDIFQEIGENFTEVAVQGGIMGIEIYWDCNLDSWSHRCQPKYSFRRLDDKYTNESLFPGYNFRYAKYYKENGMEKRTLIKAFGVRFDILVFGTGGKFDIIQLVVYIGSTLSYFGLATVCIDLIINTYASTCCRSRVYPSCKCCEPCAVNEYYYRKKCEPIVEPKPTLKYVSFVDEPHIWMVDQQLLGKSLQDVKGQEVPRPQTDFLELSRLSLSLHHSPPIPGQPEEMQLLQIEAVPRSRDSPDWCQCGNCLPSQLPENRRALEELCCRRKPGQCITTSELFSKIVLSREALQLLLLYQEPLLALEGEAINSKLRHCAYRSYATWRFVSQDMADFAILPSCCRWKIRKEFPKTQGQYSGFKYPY
Sequence of UniProt P06241 (whole entry, looked up): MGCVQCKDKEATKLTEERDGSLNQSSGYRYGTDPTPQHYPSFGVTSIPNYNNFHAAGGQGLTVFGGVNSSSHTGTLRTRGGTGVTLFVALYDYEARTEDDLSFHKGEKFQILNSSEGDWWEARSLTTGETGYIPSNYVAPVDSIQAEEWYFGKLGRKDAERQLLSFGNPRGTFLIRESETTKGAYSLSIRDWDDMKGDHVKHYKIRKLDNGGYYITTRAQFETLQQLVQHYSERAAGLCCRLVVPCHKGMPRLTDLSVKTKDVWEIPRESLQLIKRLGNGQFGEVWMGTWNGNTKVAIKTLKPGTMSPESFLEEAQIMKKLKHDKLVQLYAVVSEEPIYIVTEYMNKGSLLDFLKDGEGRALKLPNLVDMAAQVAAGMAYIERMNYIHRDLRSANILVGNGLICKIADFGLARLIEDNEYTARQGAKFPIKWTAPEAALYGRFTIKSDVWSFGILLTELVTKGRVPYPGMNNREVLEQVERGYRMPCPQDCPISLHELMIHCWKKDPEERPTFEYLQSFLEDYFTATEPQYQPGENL
Sequence of UniProt P00740 (whole entry, looked up): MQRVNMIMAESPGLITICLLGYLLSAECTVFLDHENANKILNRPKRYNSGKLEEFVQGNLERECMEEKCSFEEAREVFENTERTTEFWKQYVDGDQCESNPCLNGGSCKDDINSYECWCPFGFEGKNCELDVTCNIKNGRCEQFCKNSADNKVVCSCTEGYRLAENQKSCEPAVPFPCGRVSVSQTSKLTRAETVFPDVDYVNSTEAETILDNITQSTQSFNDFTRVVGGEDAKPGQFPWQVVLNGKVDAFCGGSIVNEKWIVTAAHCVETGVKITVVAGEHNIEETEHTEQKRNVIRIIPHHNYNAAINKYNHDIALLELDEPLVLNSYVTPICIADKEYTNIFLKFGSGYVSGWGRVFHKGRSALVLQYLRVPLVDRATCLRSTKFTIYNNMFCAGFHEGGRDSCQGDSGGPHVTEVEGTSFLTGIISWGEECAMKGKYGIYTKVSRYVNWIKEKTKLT

| Substance | target or system | assay | test system | conditions | how to read | measurement | result |
| --- | --- | --- | --- | --- | --- | --- | --- |
| ACVLMLRRCRILGWCCSG (MP5.6; two disulfides) | chymotrypsin alpha (Bos taurus, UniProt P00766) | flow cytometry | peptide | – | – | Kd | 0.0015 µM |
| comA (Bacillus velezensis) | RapC (Bacillus velezensis) | BLI | – | – | – | Kd | 0.0135 µM |
| KLLITIHDRKEFAKFEKEKARAKWDTANNPLYKEATSTFTNITYRGT (ITGB3 742-788 E732K/R734K (Homo sapiens, UniProt P05106); sequence looked up) | Tln1 | NMR titration | – | – | – | Kd | 748 µM |
| Peginesatide | UT7/EPO | p38 MAPK phosphorylation, agonist, electrochemiluminescence, item: phospho-p38 | – | 10 min | relative to: maximal rHuEPO response | Emax | 98 ± 7% |
| LE1 (Glycine max, UniProt P05046) | asialo ovine submaxillary mucin, asialo (sialic acid removed) (Ovis aries) | protein array | – | – | – | Kd | 0.0006 µM |
| BRCA1 coiled-coil domain (Homo sapiens) | PALB2 1-56 (Homo sapiens, UniProt Q86YC2) | ITC | – | – | – | Kd | 1.4 µM |
| F2 thrombin S195A | thrombin mature | BLI | – | – | – | Kd | 0.77 ± 0.17 µM |
| SCN2A fragment Y1919A (Homo sapiens) (sequence not shown) | CALM1 (Homo sapiens, UniProt P0DP23) | fluorescence titration | – | together with: CaCl2 | – | Kd | 0.173 µM |
| B1 (KLRK1 73-216) | MICA high-affinity allele 24-307 (Homo sapiens, UniProt Q29983) | SPR | Fc fusion | – | – | Kd | 0.0061 ± 0.0006 µM |
| B2 (PUX3) | CDC48A | ITC | – | 25 °C | – | Kd | 3.4 ± 0.5 µM |
| SPTBN2 actin-binding domain Y272H (sequence not shown) | ACTA1 F-actin (Oryctolagus cuniculus, UniProt P68135) | co-sedimentation | – | – | – | Kd | 15.3 µM |
| colistin | Stenotrophomonas maltophilia | broth microdilution | clinical isolate RKI-No 136/09 | – | – | MIC | 8 µg/mL |
| ficolin-A mature (Rattus norvegicus, UniProt Q9WTS8) | C1r/C1s full-length tetramer (Homo sapiens) | SPR | – | together with: CaCl2 140 mM | – | Kd | 0.028 µM |
| KISPPTPKPRPPRPLPVAPGS (PIK3R1 proline-rich region 1 (Homo sapiens)) | FYN 72-142 (Homo sapiens, UniProt P06241) | ITC | peptide | – | – | Kd | 41.3 ± 2.7 µM |
| B3 (Cacna1c 1647-1777) | Jph2 1-440 S165Y (Mus musculus, UniProt Q9ET78) | ITC | – | – | – | Kd | 19.2 µM |
| CDH2 extracellular domain (Homo sapiens) | FGB residues 15-66, dimer (Homo sapiens) | ELISA | – | together with: EDTA | – | Kd | 0.0188 µM |
| B4 (PLXND1 RBD 1553-1678) | RND2 1-227 (Homo sapiens, UniProt P52198) | SPR | – | – | – | Kd | 6.72 ± 0.73 µM |
| PAPALPPKPPKPTT (PIK3R1 303-316 (Homo sapiens)) | FYN 82-144 (Homo sapiens, UniProt P06241) | ITC | peptide | – | – | Kd | 53.4 µM |
| PUX5 (Arabidopsis thaliana, UniProt Q7Y175) | CDC48A | ITC | – | 25 °C | – | Kd | 3.6 ± 0.3 µM |

| Substance | target or system | assay | test system | conditions | how to read | measurement | result |
| --- | --- | --- | --- | --- | --- | --- | --- |
| Unc5D fragment (Rattus norvegicus) (sequence not shown) | Flrt2 ectodomain (Mus musculus) | SPR | – | – | – | Kd | 0.31 µM |
| B5 | UBB mature (UniProt P0CG47) | ITC | – | – | – | Kd | 3.6 ± 0.3 µM |
| PCSK9 (Homo sapiens, UniProt Q8NBP7) | evolocumab IgG, PBS-stressed 14 d, Asn deamidation, heavy chain CDR2 Asn55 and Fc | SPR | – | – | – | Kd | 0.0013 µM |
| B6 | MAP1LC3B fragment (Homo sapiens) | BLI | – | – | – | Kd | 5.14 µM and 5.13 µM and 4.22 µM and 6.07 µM |
| CDH1 fragment (Homo sapiens) (sequence not shown) | CTNNB1 (Homo sapiens, UniProt P35222) | BLI | – | – | – | Kd | 0.00497 ± 0.00079 µM |
| ARTKQTARKSTGGKAY (H3C1 1-15; K4me3) | T1, ATRX ADD domain 167-289 K251R/F284Y (Homo sapiens) | ITC | peptide | – | – | Kd | 93.5 µM |
| F9 heavy and light chains, activated (UniProt P00740) | F8 activated, A1/A2/A3-C1-C2 R562Q (Homo sapiens) | FXa generation, factor Xa generation rate | – | together with: FX | – | Kd | 0.001 µM |
| 11-deoxycorticosterone | CYP11B2 (human) | substrate binding, stopped-flow kinetic modelling | – | 4-state branched induced-fit model, together with: equimolar adrenodoxin | – | rate constant k2 | 109 min⁻¹ |
| BzATP | P2X purinoceptor 7 (P2rx7, Rattus norvegicus, UniProt Q64663, I214A/Q143A/R125A) | ion current, agonist, two-electrode voltage clamp | Xenopus laevis oocytes | 30 µM | relative to: 100 µM ATP current | normalized current | 0.2 and 0.29 and 0.23 |
| B7 (CFH domains 1108-1231 R1182S) | C3 996-1303 (Homo sapiens, UniProt P01024) | SPR | – | – | – | Kd | 13.8 ± 0.4 µM |
| WHRSYYTWNLAG (TR3-LAG peptide) | CD274 19-238 (Homo sapiens, UniProt Q9NZQ7) | SPR | peptide | – | – | Kd | 0.198 µM |
| FNA / CGLSGLGVA-NH2 ([18F]FNA-labelled, C-amide) | – | ex vivo gamma counting | peptide, glioblastoma mouse model, uterus | 60 min post injection, together with: 500-fold excess CooP blocking | – | tissue uptake | 0.59 %ID/g |
| PSPHGTRRHLPSPP (SOS1 proline-rich peptide, 1264-1277) | GRB2 1-58 (Homo sapiens, UniProt P62993) | NMR titration | peptide | – | – | Kd | 208 µM |
| FGA (Homo sapiens, UniProt P02671) | CAPN6 (Homo sapiens, UniProt Q9Y6Q1) | cross-linking MS | – | together with: DSSO | – | cross-linked residues | K440 to K609 |
| LSSKEVDPSTGELQSLQMPE (SQSTM1 341-360; N-acetyl, C-terminal amide) | KEAP1 321-609 (Homo sapiens, UniProt Q14145) | ITC | peptide | – | – | Kd | 1.7 µM |
| B8 | MAP2K1 (Homo sapiens, UniProt Q02750) | BLI | – | – | – | Kd | 0.17 ± 0.0137 µM |
| KLLMIIHDRREFAKFEKEKMNAKWDTGENPIYKSPVTTVVNPKYEGK (ITGB1 752-798 A786P (Homo sapiens, UniProt P05556-1); sequence looked up) | Tln1 | NMR titration | – | – | – | Kd | 243 µM |
| B9 (RAP1A) | PREX1 (Homo sapiens, UniProt Q8TCU6) | fluorescence titration | – | together with: mant-GTP 1 µM | – | Kd | 35 ± 3 µM |

Excerpt of the above:
| Substance | target or system | assay | test system | conditions | how to read | measurement | result |
| --- | --- | --- | --- | --- | --- | --- | --- |
| 11-deoxycorticosterone | CYP11B2 (human) | substrate binding, stopped-flow kinetic modelling | – | 4-state branched induced-fit model, together with: equimolar adrenodoxin | – | rate constant k2 | 109 min⁻¹ |
| BzATP | P2X purinoceptor 7 (P2rx7, Rattus norvegicus, UniProt Q64663, I214A/Q143A/R125A) | ion current, agonist, two-electrode voltage clamp | Xenopus laevis oocytes | 30 µM | relative to: 100 µM ATP current | normalized current | 0.2 and 0.29 and 0.23 |
| B7 (CFH domains 1108-1231 R1182S) | C3 996-1303 (Homo sapiens, UniProt P01024) | SPR | – | – | – | Kd | 13.8 ± 0.4 µM |
| WHRSYYTWNLAG (TR3-LAG peptide) | CD274 19-238 (Homo sapiens, UniProt Q9NZQ7) | SPR | peptide | – | – | Kd | 0.198 µM |
| FNA / CGLSGLGVA-NH2 ([18F]FNA-labelled, C-amide) | – | ex vivo gamma counting | peptide, glioblastoma mouse model, uterus | 60 min post injection, together with: 500-fold excess CooP blocking | – | tissue uptake | 0.59 %ID/g |
